# Results pooled from the literature.
# Parts stem from different laboratories: compare values within a part only.
# Chain of UniProt P42336 (whole entry, unmodified, looked up): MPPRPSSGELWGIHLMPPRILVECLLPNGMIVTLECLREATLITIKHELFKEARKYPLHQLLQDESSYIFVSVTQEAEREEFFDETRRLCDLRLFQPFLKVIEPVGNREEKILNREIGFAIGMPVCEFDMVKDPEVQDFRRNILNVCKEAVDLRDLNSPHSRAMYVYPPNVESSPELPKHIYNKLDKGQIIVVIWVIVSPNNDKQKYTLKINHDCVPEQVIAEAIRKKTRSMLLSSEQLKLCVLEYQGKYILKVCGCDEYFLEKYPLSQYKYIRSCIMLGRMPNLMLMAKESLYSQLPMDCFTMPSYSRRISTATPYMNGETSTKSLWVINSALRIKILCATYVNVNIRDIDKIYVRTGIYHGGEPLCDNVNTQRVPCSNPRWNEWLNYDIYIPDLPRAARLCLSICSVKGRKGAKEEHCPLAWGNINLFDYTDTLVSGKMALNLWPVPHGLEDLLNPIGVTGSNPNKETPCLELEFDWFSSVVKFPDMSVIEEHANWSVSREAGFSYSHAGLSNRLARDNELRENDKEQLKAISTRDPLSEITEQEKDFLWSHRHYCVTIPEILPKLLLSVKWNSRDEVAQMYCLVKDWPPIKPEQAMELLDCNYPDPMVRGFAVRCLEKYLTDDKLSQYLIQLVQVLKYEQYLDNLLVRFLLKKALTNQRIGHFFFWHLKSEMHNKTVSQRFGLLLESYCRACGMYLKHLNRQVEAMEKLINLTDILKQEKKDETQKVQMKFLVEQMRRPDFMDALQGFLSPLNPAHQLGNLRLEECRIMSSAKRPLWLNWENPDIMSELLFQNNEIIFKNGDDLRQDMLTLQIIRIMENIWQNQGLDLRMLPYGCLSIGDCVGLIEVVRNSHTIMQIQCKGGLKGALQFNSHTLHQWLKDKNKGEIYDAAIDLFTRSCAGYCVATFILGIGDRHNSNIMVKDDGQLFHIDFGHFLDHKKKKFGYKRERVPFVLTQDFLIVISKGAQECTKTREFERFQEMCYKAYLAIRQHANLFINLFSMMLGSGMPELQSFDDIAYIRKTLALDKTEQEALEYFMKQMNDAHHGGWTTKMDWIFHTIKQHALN
# Chain of UniProt P42680 (whole entry, looked up): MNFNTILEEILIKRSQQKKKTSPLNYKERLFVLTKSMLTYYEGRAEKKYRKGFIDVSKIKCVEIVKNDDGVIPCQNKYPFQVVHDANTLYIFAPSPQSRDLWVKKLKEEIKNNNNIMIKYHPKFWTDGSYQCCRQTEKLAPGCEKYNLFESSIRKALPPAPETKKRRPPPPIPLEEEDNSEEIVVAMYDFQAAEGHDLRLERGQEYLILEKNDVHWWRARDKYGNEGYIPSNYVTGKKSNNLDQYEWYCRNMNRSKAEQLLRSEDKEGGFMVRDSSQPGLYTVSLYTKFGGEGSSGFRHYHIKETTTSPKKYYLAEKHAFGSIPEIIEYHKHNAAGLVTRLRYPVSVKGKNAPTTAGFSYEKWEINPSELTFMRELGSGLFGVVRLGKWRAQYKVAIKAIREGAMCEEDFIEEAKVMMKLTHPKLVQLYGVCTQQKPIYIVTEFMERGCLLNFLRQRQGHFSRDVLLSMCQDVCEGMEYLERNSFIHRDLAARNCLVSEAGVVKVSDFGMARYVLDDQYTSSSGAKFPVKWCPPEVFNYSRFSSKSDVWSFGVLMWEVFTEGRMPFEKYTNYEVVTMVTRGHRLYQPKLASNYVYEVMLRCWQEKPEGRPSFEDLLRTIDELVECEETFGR
# Chain of UniProt P08069 (whole entry, looked up): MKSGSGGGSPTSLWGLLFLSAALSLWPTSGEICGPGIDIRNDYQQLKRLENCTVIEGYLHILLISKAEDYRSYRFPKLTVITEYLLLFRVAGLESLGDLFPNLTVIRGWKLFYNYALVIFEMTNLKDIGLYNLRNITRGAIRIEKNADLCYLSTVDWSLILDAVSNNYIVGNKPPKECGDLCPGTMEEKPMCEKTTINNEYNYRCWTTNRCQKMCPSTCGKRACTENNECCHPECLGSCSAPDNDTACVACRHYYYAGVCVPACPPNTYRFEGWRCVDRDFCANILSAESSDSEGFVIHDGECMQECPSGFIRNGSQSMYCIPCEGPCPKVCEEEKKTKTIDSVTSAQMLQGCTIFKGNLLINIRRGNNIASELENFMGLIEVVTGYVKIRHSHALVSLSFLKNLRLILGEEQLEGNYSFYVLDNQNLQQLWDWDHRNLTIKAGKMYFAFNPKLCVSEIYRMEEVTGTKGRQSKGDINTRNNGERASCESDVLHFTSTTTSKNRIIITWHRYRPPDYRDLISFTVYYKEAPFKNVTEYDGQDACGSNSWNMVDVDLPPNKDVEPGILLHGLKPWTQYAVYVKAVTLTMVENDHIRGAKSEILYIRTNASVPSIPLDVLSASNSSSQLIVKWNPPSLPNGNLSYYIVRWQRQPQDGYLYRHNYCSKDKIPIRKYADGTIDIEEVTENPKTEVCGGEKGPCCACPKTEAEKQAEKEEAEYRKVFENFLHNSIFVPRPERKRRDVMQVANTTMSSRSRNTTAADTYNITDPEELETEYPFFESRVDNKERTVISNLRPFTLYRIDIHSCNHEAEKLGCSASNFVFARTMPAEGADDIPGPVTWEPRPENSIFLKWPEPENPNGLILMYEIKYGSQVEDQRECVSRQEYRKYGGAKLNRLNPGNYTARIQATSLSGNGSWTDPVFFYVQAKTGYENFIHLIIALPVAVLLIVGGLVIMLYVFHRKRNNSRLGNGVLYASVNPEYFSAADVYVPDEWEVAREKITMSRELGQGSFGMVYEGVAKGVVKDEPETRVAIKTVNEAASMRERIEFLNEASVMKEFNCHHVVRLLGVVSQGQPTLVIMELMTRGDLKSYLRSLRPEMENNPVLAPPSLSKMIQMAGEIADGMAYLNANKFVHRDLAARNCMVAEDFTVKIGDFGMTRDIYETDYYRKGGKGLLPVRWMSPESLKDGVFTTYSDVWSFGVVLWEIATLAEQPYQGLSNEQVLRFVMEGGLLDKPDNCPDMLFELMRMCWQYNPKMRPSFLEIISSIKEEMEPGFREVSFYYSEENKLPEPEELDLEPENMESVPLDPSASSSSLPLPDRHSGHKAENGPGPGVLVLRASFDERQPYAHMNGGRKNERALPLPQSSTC
# Chain of UniProt Q00535 (whole entry, looked up): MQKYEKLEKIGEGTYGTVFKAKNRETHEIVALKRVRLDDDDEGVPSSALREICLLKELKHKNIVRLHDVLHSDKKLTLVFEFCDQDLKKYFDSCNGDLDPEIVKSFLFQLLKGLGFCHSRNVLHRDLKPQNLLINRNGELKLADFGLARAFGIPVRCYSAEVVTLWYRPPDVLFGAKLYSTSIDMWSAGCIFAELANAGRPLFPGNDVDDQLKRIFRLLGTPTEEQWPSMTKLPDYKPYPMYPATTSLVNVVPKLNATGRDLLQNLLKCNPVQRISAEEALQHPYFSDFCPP
# Chain of UniProt Q8TDR2 (whole entry, looked up): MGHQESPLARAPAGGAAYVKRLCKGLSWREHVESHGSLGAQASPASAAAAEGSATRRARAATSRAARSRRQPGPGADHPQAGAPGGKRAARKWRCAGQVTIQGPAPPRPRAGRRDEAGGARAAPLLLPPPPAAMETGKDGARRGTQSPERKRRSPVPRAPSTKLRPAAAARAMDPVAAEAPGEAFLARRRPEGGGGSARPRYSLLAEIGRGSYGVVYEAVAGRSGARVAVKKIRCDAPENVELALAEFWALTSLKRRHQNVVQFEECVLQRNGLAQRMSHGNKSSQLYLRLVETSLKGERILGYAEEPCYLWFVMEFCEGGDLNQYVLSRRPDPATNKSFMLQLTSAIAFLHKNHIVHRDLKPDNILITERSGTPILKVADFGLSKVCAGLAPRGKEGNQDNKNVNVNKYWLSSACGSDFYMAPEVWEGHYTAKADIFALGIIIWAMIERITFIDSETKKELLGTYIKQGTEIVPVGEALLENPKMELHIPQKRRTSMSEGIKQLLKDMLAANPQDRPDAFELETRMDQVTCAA
# Chain of UniProt Q8NFD2 (whole entry, looked up): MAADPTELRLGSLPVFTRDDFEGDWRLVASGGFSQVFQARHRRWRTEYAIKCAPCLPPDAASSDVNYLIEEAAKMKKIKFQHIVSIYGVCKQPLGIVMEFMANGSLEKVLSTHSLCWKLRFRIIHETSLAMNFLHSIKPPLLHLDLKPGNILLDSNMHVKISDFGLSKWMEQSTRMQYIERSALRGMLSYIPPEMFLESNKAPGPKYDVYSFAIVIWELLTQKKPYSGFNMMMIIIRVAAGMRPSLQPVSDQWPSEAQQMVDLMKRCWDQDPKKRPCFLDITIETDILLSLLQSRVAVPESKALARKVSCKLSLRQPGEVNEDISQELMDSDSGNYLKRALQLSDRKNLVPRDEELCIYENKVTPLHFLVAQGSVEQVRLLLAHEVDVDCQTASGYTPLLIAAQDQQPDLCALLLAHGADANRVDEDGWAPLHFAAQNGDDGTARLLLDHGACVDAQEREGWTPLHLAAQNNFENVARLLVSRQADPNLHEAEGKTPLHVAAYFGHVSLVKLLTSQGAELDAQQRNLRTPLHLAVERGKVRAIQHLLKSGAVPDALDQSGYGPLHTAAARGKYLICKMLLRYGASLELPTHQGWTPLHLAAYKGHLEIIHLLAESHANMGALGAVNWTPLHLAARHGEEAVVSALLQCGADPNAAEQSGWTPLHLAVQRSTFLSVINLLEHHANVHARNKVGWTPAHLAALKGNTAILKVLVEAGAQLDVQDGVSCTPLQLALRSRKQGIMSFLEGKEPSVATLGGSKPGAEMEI

# Study 1
# Target: Eukaryotic initiation factor 4A-I (EIF4A1, Homo sapiens, UniProt P60842, residues 1-406, full length assumed)
# Chain of UniProt P60842 (whole entry, looked up): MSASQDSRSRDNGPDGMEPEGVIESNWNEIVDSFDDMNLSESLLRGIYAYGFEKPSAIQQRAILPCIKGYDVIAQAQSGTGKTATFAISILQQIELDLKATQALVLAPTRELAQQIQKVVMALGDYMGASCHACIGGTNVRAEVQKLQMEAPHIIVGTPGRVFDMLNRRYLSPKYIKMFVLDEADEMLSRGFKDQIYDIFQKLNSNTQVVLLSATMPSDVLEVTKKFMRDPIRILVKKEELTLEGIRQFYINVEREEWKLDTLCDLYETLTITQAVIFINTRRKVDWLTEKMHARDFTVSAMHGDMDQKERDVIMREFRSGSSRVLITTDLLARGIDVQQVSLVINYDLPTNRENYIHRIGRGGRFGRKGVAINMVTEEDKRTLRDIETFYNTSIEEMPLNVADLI
# Technique: RNA Bind-n-Seq
# Molecule type: RNA
# Medium: in vitro
# Concentration: 15 pmol
# Notes: 4-mer, random 30-nt RNA, single round
# Added: 3 µM DMDA-PatA, 2 mM AMP-PNP
# Reference: input library
# Direction: higher = stronger binding
Oligonucleotide,4-mer enrichment
CACC,0.376 fold
AUUC,0.799 fold
UCCC,0.53 fold
UGGC,1.09 fold
UAAG,1.39 fold
CCAA,0.376 fold
UUUU,1.18 fold
AGCA,0.595 fold

# Study 2
# Target: TAR DNA-binding protein 43, full length, His tag (TARDBP, Homo sapiens, UniProt Q13148, residues 1-414)
# Technique: RNA Bind-n-Seq
# Molecule type: RNA
# Medium: in vitro
# Concentration: 20 nM
# Notes: 6-mer, flanks averaged, single round
# Added: 150 mM LiCl
# Reference: input library
# Direction: higher = stronger binding
Oligonucleotide,6-mer enrichment (R)
AGGACA,0.9
AUUUAU,1.11
ACGUAU,0.933
GGGACA,1.04
CACGCG,0.889
AAUGCU,0.912
UAUUUC,1.04
GGAUCG,1.09

# Study 3
# SMILES: CN(C)C(=O)Cn1cc(-c2nc([C@@](C)(c3ccc(-c4cnc(N)nc4)cc3)C3CC3)no2)cn1
# Technique: competition with immobilised ligand
# Concentration: 1 µM
target,effect on,remaining binding [%]
"PNCK (Homo sapiens, UniProt Q6P2M8)",cell-free assay,88
"LIM domain kinase 1 (LIMK1, Homo sapiens, UniProt P53667)",cell-free assay,81
"PIM1 (Homo sapiens, UniProt P11309)",cell-free assay,100
"EGFR (Homo sapiens, UniProt P00533, G719C)",cell-free assay,85
"IGF1R (Homo sapiens, UniProt P08069)",cell-free assay,100
"RIPK2 (Homo sapiens, UniProt O43353)",cell-free assay,87
"PRKACA (Homo sapiens, UniProt P17612)",cell-free assay,87
"BRAF (Homo sapiens, UniProt P15056)",cell-free assay,82
"Tyrosine-protein kinase ABL1, non-phosphorylated (ABL1, Homo sapiens, UniProt P00519, T315I)",cell-free assay,86
"PIK3CA (Homo sapiens, UniProt P42336, E545K)",cell-free assay,81
"RET (Homo sapiens, UniProt P07949, V804M)",cell-free assay,97
"ANKK1 (Homo sapiens, UniProt Q8NFD2)",cell-free assay,81
"TEC (Homo sapiens, UniProt P42680)",binding,93
"PIK3CB (Homo sapiens, UniProt P42338)",cell-free assay,100
"PIK3CA (Homo sapiens, UniProt P42336, E545A)",cell-free assay,75
"CDK5 (Homo sapiens, UniProt Q00535)",cell-free assay,100
"STK35 (Homo sapiens, UniProt Q8TDR2)",cell-free assay,88

# Other studies, line by line
Structure (SMILES),tested on,effect on,concentration,time,notes,quantity,value
CCN1CCC[C@H]1CNC(=O)c1c(O)c(Cl)cc(Cl)c1OC,Sarcocystis neurona,parasite growth,10 µM,,secondary screen,inhibition,-27.6%
NS(=O)(=O)c1cc2c(cc1Cl)N=C(CSCc1ccccc1)NS2(=O)=O,A-375,,100 µM,36 h,,viability,114%
NS(=O)(=O)c1cc2c(cc1C(F)(F)F)NC(Cc1ccccc1)NS2(=O)=O (stereo not shown),Sarcocystis neurona,parasite growth,10 µM,,secondary screen,inhibition,-35.9%
CN(C)CCc1c[nH]c2ccc(Cn3cncn3)cc12,A-375,,100 µM,36 h,,viability,97.8%
